Measurements from different studies.
Organism: Escherichia coli

SMILES = CC[C@H](C)[C@H](NC(=O)[C@H](CC(C)C)NC(=O)[C@H](CC(=O)O)NC(=O)[C@H](CO)NC(=O)[C@H](CCCNC(=N)N)NC(=O)[C@@H](N)CO)C(=O)N[C@H](C(=O)N[C@@H](Cc1c[nH]cn1)C(=O)N[C@@H](CCC(N)=O)C(=O)N[C@@H](CCCNC(=N)N)C(=O)N[C@@H](CC(C)C)C(=O)N[C@@H](Cc1ccccc1)C(N)=O)C(C)C; test = broth microdilution; system = Mueller Hinton broth; MIC = > 400 mg/L
SMILES = CC[C@H](C)[C@H](NC(=O)[C@H](CCN)NC(=O)[C@H](Cc1ccccc1)NC(=O)[C@H](Cc1ccccc1)NC(=O)CCCCCO)C(=O)N[C@@H](CCN)C(=O)N[C@H](Cc1ccccc1)C(=O)N[C@@H](CC(C)C)C(=O)N[C@@H](CCN)C(=O)N[C@@H](C(=O)N[C@@H](CC(C)C)C(=O)N[C@@H](CO)C(N)=O)C(C)C; setting = 24 h, 37 °C; MIC = 12.5 µM
SMILES = CC[C@H](C)[C@@H]1NC(=O)CNC(=O)[C@H](CCCCN)NC(=O)[C@H](C)NC(=O)[C@H](CCC(=O)O)NC(=O)[C@H](Cc2ccccc2)NC(=O)[C@H](CO)NC(=O)[C@H](CC(C)C)NC(=O)[C@H](C(C)C)NC(=O)[C@H](CC(=O)O)NC(=O)[C@@H](NC(=O)[C@@H](NC(=O)[C@@H](N)C(C)C)[C@@H](C)O)CSSC[C@@H]2NC(=O)[C@H](CO)NC(=O)CNC(=O)CNC(=O)[C@H](CCCCN)NC(=O)[C@H](CCCCN)NC(=O)[C@H](CCCNC(=N)N)NC(=O)[C@H](CC(C)C)NC(=O)[C@H](C)NC(=O)[C@H]([C@@H](C)CC)NC(=O)[C@@H]3CSSC[C@@H](C(=O)N[C@@H](CCCNC(=N)N)C(=O)N[C@@H](CC(N)=O)C(=O)O)NC(=O)[C@H](C(C)C)NC(=O)[C@H](CSSC[C@H](NC(=O)[C@H](C)NC(=O)[C@H](CO)NC(=O)[C@H](Cc4c[nH]cn4)NC(=O)[C@H](CC(N)=O)NC(=O)[C@H](C(C)C)NC(=O)[C@H](C)NC1=O)C(=O)N[C@@H](C)C(=O)N[C@@H](CC(C)C)C(=O)N[C@@H](Cc1c[nH]cn1)C(=O)N3)NC(=O)[C@H](C(C)C)NC(=O)CNC(=O)[C@H](CC(N)=O)NC(=O)[C@H](CCC(N)=O)NC2=O; test = broth microdilution; system = KCTC 1682; setting = 16 h, 37 °C; MIC = 3.1 µM
SMILES = CC[C@H](C)[C@H](NC(=O)[C@H](CCCNC(=N)N)NC(=O)[C@H](CC(C)C)NC(=O)[C@H](CC(C)C)NC(=O)[C@H](C)NC(=O)[C@@H](NC(=O)[C@H](CCCCN)NC(=O)[C@H](CCCCN)NC(=O)[C@H](C)NC(=O)[C@@H](NC(=O)[C@H](Cc1c[nH]c2ccccc12)NC(=O)[C@@H](NC(=O)[C@H](Cc1ccc(O)cc1)NC(=O)[C@H](Cc1ccccc1)NC(=O)[C@H](CC(=O)O)NC(=O)[C@H](Cc1ccc(O)cc1)NC(=O)[C@@H](NC(=O)[C@H](CC(C)C)NC(=O)[C@H](CO)NC(=O)[C@H](C)NC(=O)[C@H](C)NC(=O)[C@@H](NC(=O)[C@@H](NC(=O)[C@@H](N)CC(C)C)[C@@H](C)CC)C(C)C)C(C)C)[C@@H](C)O)[C@@H](C)CC)C(C)C)C(=O)N[C@@H](C)C(=O)N[C@@H](CCCCN)C(=O)N[C@@H](CCCCN)C(=O)N[C@H](C(=O)N[C@@H](CC(C)C)C(=O)N[C@@H](Cc1ccc(O)cc1)C(=O)N[C@@H](CC(C)C)C(=O)N[C@@H](C)C(=O)N[C@@H](CCCNC(=N)N)C(=O)N[C@@H](CC(N)=O)C(=O)N[C@@H](C)C(=O)O)C(C)C; system = ATCC 25922; setting = 24 h; MIC = 1 µM
SMILES = Cc1cc(N)c2cc(NC(=O)c3ccc4c(-c5cccc(N)c5)cccc4c3)ccc2n1; system = hyperporinated ΔtolC; MIC = 50 µM
SMILES = CCCCCCCCCCCCCCC(=O)N[C@@H](CCCCN)C(=O)N[C@@H](CCCCN)C(=O)N[C@@H](CCCCN)C(=O)N[C@@H](CCCCN)C(=O)N[C@@H](Cc1c[nH]cn1)C(N)=O; test = broth microdilution; system = K12, water pH 7; setting = 18 h, 37 °C; MIC = 16 mg/L
SMILES = c1ccc(CCNC2CCCc3c2[nH]c2ccc(C4CCCCC4)cc32)cc1 (stereo not shown); test = broth microdilution; system = O-19592, cation-adjusted MHB; MIC = > 128 mg/L
SMILES = CCC(CC)c1cc(C2CN3CCC2CC3CNC)nc(-c2ccncc2)n1 (stereo not shown); test = microbial growth, broth dilution; system = ATCC25922; MIC = 64 mg/L
SMILES = CCCCCCCCCCCCCCCCCC(=O)N[C@@H](CCCN)C(=O)N[C@@H](CCCN)C(=O)N[C@@H](CCCN)C(=O)N[C@@H](CCCN)C(=O)N[C@@H](CCCN)C(N)=O; test = broth microdilution; system = K12; setting = 16-24 h, 37 °C, prepared at pH 7; MIC = 16 mg/L
SMILES = CC[C@@H](C)[C@@H](NC(=O)[C@@H](C)NC(=O)[C@H](NC(=O)[C@@H](CC(=O)O)NC(=O)[C@@H](CCCCN)NC(=O)[C@@H](CO)NC(=O)[C@H](NC(=O)[C@@H](CC(N)=O)NC(=O)[C@@H](C)NC(=O)[C@H](NC(=O)[C@@H](CCC(=O)O)NC(=O)[C@@H](CCCCN)NC(=O)[C@H](NC(=O)[C@H](NC(=O)[C@@H](Cc1c[nH]cn1)NC(=O)[C@@H](CCCCN)NC(=O)[C@H](NC(=O)[C@@H](CCCCN)NC(=O)[C@@H](CCCCN)NC(=O)[C@H](NC(=O)[C@@H](CC(C)C)NC(=O)[C@@H](CCCCN)NC(=O)[C@@H](CC(N)=O)NC(=O)[C@@H](Cc1ccccc1)NC(=O)[C@@H](CCCNC(=N)N)NC(=O)[C@@H](CCCCN)NC(=O)[C@@H](CCCNC(=N)N)NC(=O)[C@@H](Cc1ccccc1)NC(=O)CN)C(C)C)C(C)C)[C@H](C)O)[C@H](C)CC)[C@H](C)O)C(C)C)C(C)C)C(=O)N[C@@H](C(=O)N[C@H](C)C(=O)NCC(=O)N[C@H](CO)C(=O)NCC(=O)N[C@@H](C(=O)N[C@H](C)C(=O)N[C@@H](C(=O)NCC(=O)N[C@H](C)C(=O)N[C@H](C)C(=O)N[C@H](CCSC)C(N)=O)C(C)C)C(C)C)C(C)C; system = isolate RKI 131/03, CAMHB; MIC = 16 mg/L

Repeated from above:
SMILES = c1ccc(CCNC2CCCc3c2[nH]c2ccc(C4CCCCC4)cc32)cc1 (stereo not shown); test = broth microdilution; system = O-19592, cation-adjusted MHB; MIC = > 128 mg/L
